{"data": "Experimental data from different studies", "note": "Each line is one published result; not all experiments were run side by side. Numbers after ± are the reported error."}
{"SMILES": "Oc1cc(O)c2c(c1)O[C@@]1(c3ccc(O)c(O)c3)Oc3cc(O)c4c(c3[C@@H]2[C@H]1O)O[C@H](c1ccc(O)c(O)c1)[C@H](O)C4", "organism": "HIV pseudovirus with SARS-CoV S", "assay": "viral entry, inhibitor", "test system": "HepG2", "IC50": "121 ± 13.1 µM"}
{"SMILES": "COC(=O)c1ncn(C2CC(O)C(CO)O2)c1C(=O)OC (stereo not shown)", "organism": "Mammarenavirus lassaense", "assay": "viral replication, inhibitor", "test system": "Vero", "setting": "48 h", "IC50": "13 µg/mL"}
{"SMILES": "O=[N+]([O-])c1ccc(-n2nc(-c3ccccc3)cc2-c2ccc(F)cc2)c([N+](=O)[O-])c1", "organism": "Japanese encephalitis virus", "assay": "plaque formation", "test system": "N2a", "setting": "72 h", "IC50": "~5 µM"}
{"SMILES": "C[C@]12C=CC(=O)C=C1CC[C@@H]1[C@@H]2[C@@H](O)C[C@@]2(C)[C@H]1C[C@H]1OC(C3CC3)O[C@]12C(=O)CO (stereo partly shown)", "organism": "Severe acute respiratory syndrome coronavirus 2", "assay": "viral replication, inhibitor", "test system": "VeroE6/TMPRSS2", "setting": "24 h", "IC50": "> 30 µM"}
{"SMILES": "N#Cc1ncn(COCCO)c1C#N", "organism": "Mammarenavirus lassaense", "assay": "viral replication, inhibitor", "test system": "Vero", "setting": "48 h", "IC50": "32 µg/mL"}
{"SMILES": "Cc1cn([C@@H]2O[C@@H](C)[C@H](OCc3ccccc3)[C@@H](OCc3ccccc3)[C@H]2I)c(=O)[nH]c1=O", "organism": "Japanese encephalitis virus", "assay": "viral replication, inhibitor, ELISA", "test system": "Vero", "IC50": "3.6 µM"}
{"SMILES": "COC(=O)c1ncn(CCOC(C)=O)c1C(=O)OC", "organism": "Severe acute respiratory syndrome coronavirus", "assay": "viral replication", "test system": "Vero", "setting": "48 h", "IC50": "46 µg/mL"}
{"SMILES": "COCCOC(=O)N1CCC2(CCCN(Cc3ccc(Cl)c(Cl)c3)C2)C1 (stereo not shown)", "organism": "Mycobacterium tuberculosis", "assay": "resazurin", "test system": "rel knockout", "setting": "168 h, nutrient-starved", "IC50": "64 µM"}
{"SMILES": "CCOP(=O)(CCOCn1cnc(C#N)c1C#N)OCC", "organism": "Severe acute respiratory syndrome coronavirus", "assay": "viral replication", "test system": "Vero", "setting": "48 h", "IC50": "23 µg/mL"}
{"SMILES": "CCCCCCCCCCCCC1O[C@@H]2C[C@H]3[C@@H]4CCC5=CC(=O)C=C[C@]5(C)[C@H]4[C@@H](O)C[C@]3(C)[C@]2(C(=O)CO)O1 (stereo partly shown)", "organism": "Severe acute respiratory syndrome coronavirus 2", "assay": "viral replication, inhibitor", "test system": "Calu-3", "IC50": "16.1 µM"}
{"SMILES": "CC[C@@]1(O)C[C@H](O[C@H]2C[C@H](N(C)C)[C@H](O[C@H]3C[C@H](O)[C@H](O[C@H]4CCC(=O)[C@H](C)O4)[C@H](C)O3)[C@H](C)O2)c2c(cc3c(c2O)C(=O)c2c(O)cccc2C3=O)[C@H]1C(=O)OC", "organism": "SARS-CoV-2 BA.1", "assay": "viral replication, RT-qPCR of viral RNA", "test system": "Calu-3", "IC50": "0.18 µM"}
{"SMILES": "Cn1cnc(Cn2c(=O)[nH]/c(=N\\c3cc4cn(C)nc4cc3Cl)n(Cc3cc(F)c(F)cc3F)c2=O)n1", "organism": "Betacoronavirus 1", "assay": "viral replication, qPCR", "test system": "OC43, human", "IC50": "0.09 µM"}
{"SMILES": "COC(=O)CCCC1C2CCCN3CCCC(CN1S(=O)(=O)c1ccc(Cl)cc1)C23 (stereo not shown)", "organism": "Ebola virus", "assay": "viral entry", "setting": "EBOV GP pseudotyped HIV", "IC50": "8.23 µM"}
{"SMILES": "NCCCC[C@H](N)C(=O)NCC(=O)N[C@@H](CC(=O)O)C(=O)N[C@@H](CC(=O)O)C(=O)N[C@@H](Cc1ccccc1)C(=O)N[C@@H](Cc1ccccc1)C(=O)N1CCC[C@H]1C(=O)N[C@@H](Cc1ccc(O)cc1)C(=O)N[C@@H](Cc1ccc(O)cc1)C(=O)N[C@@H](Cc1c[nH]cn1)C(=O)N[C@@H](CO)C(=O)O", "organism": "Marburg virus", "assay": "pseudovirus infection", "setting": "pseudotyped virus", "IC50": "> 80 µM"}
{"SMILES": "CCOP(=O)(COCCn1cnc(C#N)c1C#N)OCC", "organism": "Severe acute respiratory syndrome coronavirus", "assay": "viral replication", "test system": "Vero", "setting": "48 h", "IC50": "20 µg/mL"}
{"SMILES": "CCC(CC)COC(=O)[C@H](C)N[P@](=O)(OC[C@H]1O[C@@](C#N)(c2ccc3c(N)ncnn23)[C@H](O)[C@@H]1O)Oc1ccccc1", "organism": "SARS-CoV-2 BA.1", "assay": "viral replication, RT-qPCR of viral RNA", "test system": "Calu-3", "IC50": "0.386 µM"}
{"SMILES": "C[C@@H]1CCCN1CCc1cc2cc(-c3ccc(C#N)cc3)ccc2o1", "organism": "Naegleria fowleri", "assay": "alamarBlue", "test system": "ATCC 30808", "setting": "48 h, trophozoites", "IC50": "3.65 ± 0.79 µM"}
{"SMILES": "CC[C@H](C)[C@H](NC(=O)[C@@H](NC(=O)[C@H](CCC(N)=O)NC(=O)[C@@H](N)CO)C(C)C)C(=O)N[C@@H](CO)C(=O)N[C@@H](CC(N)=O)C(=O)N1CCC[C@H]1C(=O)N[C@@H](Cc1ccc(O)cc1)C(=O)N[C@@H](Cc1ccc(O)cc1)C(=O)N1CCC[C@H]1C(=O)N[C@@H](Cc1ccccc1)C(=O)N[C@@H](Cc1ccc(O)cc1)C(=O)N[C@@H](Cc1ccc(O)cc1)C(=O)N[C@@H](CO)C(=O)O", "organism": "Ebola virus", "assay": "pseudovirus infection", "setting": "pseudotyped virus", "IC50": "27.3 µM"}
{"SMILES": "COC(=O)CCCC1C2CCCN3CCCC(CN1C(=O)c1ccc(Cl)cc1)C23 (stereo not shown)", "organism": "Ebola virus", "assay": "viral entry", "setting": "EBOV GP pseudotyped HIV", "IC50": "88.2 µM"}
{"SMILES": "O=c1[nH]c(=O)n([C@@H]2O[C@H](COCc3ccccc3)[C@@H](OCc3ccccc3)[C@H](OCc3ccccc3)[C@H]2I)cc1Cl", "organism": "Japanese encephalitis virus", "assay": "viral replication, inhibitor, ELISA", "test system": "Vero", "IC50": "6.41 µM"}
{"SMILES": "COc1cc(-c2oc3cc(O)cc(O)c3c(=O)c2O[C@@H]2O[C@H](CO)[C@@H](O)[C@H](OC(C)=O)[C@H]2O)ccc1O", "organism": "influenza A virus", "assay": "hemagglutination", "test system": "A/chicken/FPV/Rostock/1934 (H7N1)", "IC50": "47 ± 1.6 µM"}
{"SMILES": "NC(=O)c1ncn(C2OC(CO)C(O)C2O)c1C(N)=O (stereo not shown)", "organism": "Mammarenavirus lassaense", "assay": "viral replication, inhibitor", "test system": "Vero", "setting": "48 h", "IC50": "10 µg/mL"}
{"SMILES": "CC(=O)OCCCCCCCCCC1O[C@@H]2C[C@H]3[C@@H]4CCC5=CC(=O)C=C[C@]5(C)[C@H]4[C@@H](O)C[C@]3(C)[C@]2(C(=O)CO)O1 (stereo partly shown)", "organism": "Severe acute respiratory syndrome coronavirus 2", "assay": "viral replication", "test system": "VeroE6/TMPRSS2", "IC50": "6.7 µM"}
{"SMILES": "COC(=O)c1ncn(CCO)c1C(=O)OC", "organism": "Mammarenavirus lassaense", "assay": "viral replication, inhibitor", "test system": "Vero", "setting": "48 h", "IC50": "30 µg/mL"}
{"SMILES": "COC(=O)CC1C2CCCN3CCCC(CN1Cc1ccc(Cl)cc1)C23 (stereo not shown)", "organism": "Ebola virus", "assay": "viral entry", "setting": "EBOV GP pseudotyped HIV", "IC50": "28.1 µM"}
{"SMILES": "N=C(N)NCCC[C@H](NC(=O)[C@@H](N)CO)C(=O)N[C@@H](Cc1ccc(O)cc1)C(=O)N[C@@H](Cc1ccc(O)cc1)C(=O)N1CCC[C@H]1C(=O)N[C@@H](Cc1ccccc1)C(=O)N[C@@H](Cc1ccccc1)C(=O)NCC(=O)N[C@@H](CC(=O)O)C(=O)N[C@@H](CO)C(=O)O", "organism": "Marburg virus", "assay": "pseudovirus infection", "setting": "pseudotyped virus", "IC50": "> 80 µM"}
{"SMILES": "COc1cc(-c2oc3cc(O)cc(O)c3c(=O)c2O[C@@H]2O[C@H](CO)[C@@H](O)[C@H](O)[C@H]2OC(=O)c2cc(O)c(O)c(O)c2)ccc1O", "organism": "influenza A virus", "assay": "hemagglutination", "test system": "A/Tern/South Africa/1/61 (H5N3)", "IC50": "191.3 ± 1.54 µM"}
{"SMILES": "C(=N\\Cc1cc(C/N=C/c2ccc[nH]2)cc(-c2cc(C/N=C/c3ccc[nH]3)cc(C/N=C/c3ccc[nH]3)c2)c1)/c1ccc[nH]1", "organism": "Middle East respiratory syndrome-related coronavirus", "assay": "viral replication", "IC50": "~20 µM"}
{"SMILES": "COc1cccc2c1C(=O)c1c(O)c3c(c(O)c1C2=O)C[C@@](O)(C(=O)CO)C[C@@H]3O[C@H]1C[C@H](N)[C@@H](O)[C@H](C)O1", "organism": "SARS-CoV-2 NLuc reporter", "assay": "viral replication", "test system": "Calu-3", "setting": "16 h compound pretreatment", "IC50": "0.034 µM"}
{"SMILES": "COC(=O)CC1C2CCCN3CCCC(CN1C(=O)c1ccc(Cl)cc1)C23 (stereo not shown)", "organism": "Ebola virus", "assay": "viral entry", "setting": "EBOV GP pseudotyped HIV", "IC50": "88.2 µM"}
{"SMILES": "CC(C)[C@H](NC(=O)[C@H](Cc1ccccc1)NC(=O)[C@H](Cc1ccccc1)NC(=O)[C@H](CC(=O)O)NC(=O)[C@H](CC(=O)O)NC(=O)CNC(=O)[C@H](CCCCN)NC(=O)[C@H](CCCCN)NC(=O)[C@@H](N)Cc1c[nH]cn1)C(=O)N[C@@H](Cc1ccc(O)cc1)C(=O)N[C@@H](C)C(=O)N[C@@H](CC(=O)O)C(=O)N[C@@H](Cc1ccc(O)cc1)C(=O)O", "organism": "Marburg virus", "assay": "pseudovirus infection", "setting": "pseudotyped virus", "IC50": "58.7 µM"}
{"SMILES": "COc1cc(-c2oc3cc(O[C@@H]4O[C@@H](C)[C@H](O)[C@@H](O)[C@H]4O)cc(O)c3c(=O)c2O[C@@H]2O[C@H](CO[C@@H]3O[C@@H](C)[C@H](O)[C@@H](O)[C@H]3O)[C@@H](O)[C@H](OC(C)=O)[C@H]2O)ccc1O", "organism": "influenza A virus", "assay": "hemagglutination", "test system": "A/chicken/FPV/Rostock/1934 (H7N1)", "IC50": "97.4 ± 2.7 µM"}
{"SMILES": "CN1CCN(C(=O)N[C@@H](Cc2ccccc2)C(=O)N[C@H](/C=C/S(=O)(=O)c2ccccc2)CCc2ccccc2)CC1", "organism": "Middle East respiratory syndrome-related coronavirus", "assay": "pseudovirus entry", "test system": "Vero", "IC50": "0.046 µM"}
{"SMILES": "CC(=O)[C@]1(O)Cc2c(O)c3c(c(O)c2[C@@H](O[C@H]2C[C@H](N)[C@H](O)[C@H](C)O2)C1)C(=O)c1ccccc1C3=O", "organism": "SARS-CoV-2 NLuc reporter", "assay": "viral replication", "test system": "Calu-3", "setting": "16 h compound pretreatment", "IC50": "0.006 µM"}
{"SMILES": "COC(=O)c1ncn(C2CC(OC(=O)c3ccc(C)cc3)C(COC(=O)c3ccc(C)cc3)O2)c1C(=O)OC (stereo not shown)", "organism": "Mammarenavirus lassaense", "assay": "viral replication, inhibitor", "test system": "Vero", "setting": "48 h", "IC50": "2 µg/mL"}
{"SMILES": "COc1cccc2c1C(=O)c1c(O)c3c(c(O)c1C2=O)C[C@@](O)(C(C)=O)C[C@@H]3O[C@H]1C[C@H](N)[C@H](O)[C@H](C)O1", "organism": "SARS-CoV-2 NLuc reporter", "assay": "viral replication", "test system": "Calu-3", "setting": "16 h compound pretreatment", "IC50": "0.084 µM"}
{"SMILES": "O=C(O)CC1C2CCCN3CCCC(CN1CCCc1ccc(Cl)cc1)C23 (stereo not shown)", "organism": "Ebola virus", "assay": "viral entry", "setting": "EBOV GP pseudotyped HIV", "IC50": "> 200 µM"}
